Results collected from several papers.
Compare with care: the assays were run in different laboratories. Numbers after ± are the reported error.
Tumor necrosis factor receptor superfamily member 9/Nectin-4: Tumor necrosis factor receptor superfamily member 9/Nectin-4 (Homo sapiens, UniProt Q07011+Q96NY8)
Chain of UniProt Q07011 (whole entry, looked up): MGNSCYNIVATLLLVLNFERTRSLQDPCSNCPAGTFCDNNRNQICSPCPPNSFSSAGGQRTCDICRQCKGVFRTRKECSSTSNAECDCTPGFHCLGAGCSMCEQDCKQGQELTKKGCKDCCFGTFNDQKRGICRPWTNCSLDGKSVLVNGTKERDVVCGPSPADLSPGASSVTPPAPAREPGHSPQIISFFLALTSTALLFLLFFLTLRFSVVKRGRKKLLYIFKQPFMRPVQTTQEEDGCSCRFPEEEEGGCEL
Chain of UniProt Q96NY8 (whole entry, looked up): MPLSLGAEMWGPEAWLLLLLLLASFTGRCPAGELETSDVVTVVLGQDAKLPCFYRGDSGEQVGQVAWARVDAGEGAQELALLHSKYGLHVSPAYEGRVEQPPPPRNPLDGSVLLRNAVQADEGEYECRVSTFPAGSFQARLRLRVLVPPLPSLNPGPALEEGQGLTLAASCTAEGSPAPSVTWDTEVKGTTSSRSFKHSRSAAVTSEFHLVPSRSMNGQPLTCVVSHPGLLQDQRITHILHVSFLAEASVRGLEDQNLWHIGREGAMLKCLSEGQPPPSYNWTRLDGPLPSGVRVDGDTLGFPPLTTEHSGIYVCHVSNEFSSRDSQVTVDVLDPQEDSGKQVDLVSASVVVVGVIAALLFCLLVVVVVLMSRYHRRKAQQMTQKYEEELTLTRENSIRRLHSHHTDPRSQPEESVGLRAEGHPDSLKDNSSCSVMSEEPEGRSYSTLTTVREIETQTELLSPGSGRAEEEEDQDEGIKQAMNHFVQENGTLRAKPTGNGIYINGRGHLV
Toll-like receptor 1/2: Toll-like receptor 1/2 (Homo sapiens, UniProt O60603+Q15399)
Chain of UniProt O60603 (whole entry, looked up): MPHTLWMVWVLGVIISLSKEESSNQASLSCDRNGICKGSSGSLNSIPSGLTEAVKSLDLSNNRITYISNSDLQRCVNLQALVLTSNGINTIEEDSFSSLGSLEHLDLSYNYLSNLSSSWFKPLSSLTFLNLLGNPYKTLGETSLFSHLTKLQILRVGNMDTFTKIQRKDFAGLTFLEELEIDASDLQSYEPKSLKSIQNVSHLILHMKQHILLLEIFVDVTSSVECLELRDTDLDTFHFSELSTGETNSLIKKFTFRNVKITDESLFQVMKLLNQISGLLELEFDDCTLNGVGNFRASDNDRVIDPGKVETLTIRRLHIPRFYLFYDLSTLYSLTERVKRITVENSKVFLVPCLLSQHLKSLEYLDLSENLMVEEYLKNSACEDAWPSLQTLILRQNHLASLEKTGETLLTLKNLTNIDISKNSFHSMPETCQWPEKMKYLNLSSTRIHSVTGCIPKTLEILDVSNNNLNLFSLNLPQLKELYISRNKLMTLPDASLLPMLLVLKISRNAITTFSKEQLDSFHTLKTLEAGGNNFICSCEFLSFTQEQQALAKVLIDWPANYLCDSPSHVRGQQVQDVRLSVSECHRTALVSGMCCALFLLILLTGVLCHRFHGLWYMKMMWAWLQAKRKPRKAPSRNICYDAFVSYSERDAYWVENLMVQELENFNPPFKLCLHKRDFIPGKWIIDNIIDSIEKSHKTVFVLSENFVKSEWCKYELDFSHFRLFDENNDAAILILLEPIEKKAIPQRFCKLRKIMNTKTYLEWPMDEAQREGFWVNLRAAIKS
Chain of UniProt Q15399 (whole entry, looked up): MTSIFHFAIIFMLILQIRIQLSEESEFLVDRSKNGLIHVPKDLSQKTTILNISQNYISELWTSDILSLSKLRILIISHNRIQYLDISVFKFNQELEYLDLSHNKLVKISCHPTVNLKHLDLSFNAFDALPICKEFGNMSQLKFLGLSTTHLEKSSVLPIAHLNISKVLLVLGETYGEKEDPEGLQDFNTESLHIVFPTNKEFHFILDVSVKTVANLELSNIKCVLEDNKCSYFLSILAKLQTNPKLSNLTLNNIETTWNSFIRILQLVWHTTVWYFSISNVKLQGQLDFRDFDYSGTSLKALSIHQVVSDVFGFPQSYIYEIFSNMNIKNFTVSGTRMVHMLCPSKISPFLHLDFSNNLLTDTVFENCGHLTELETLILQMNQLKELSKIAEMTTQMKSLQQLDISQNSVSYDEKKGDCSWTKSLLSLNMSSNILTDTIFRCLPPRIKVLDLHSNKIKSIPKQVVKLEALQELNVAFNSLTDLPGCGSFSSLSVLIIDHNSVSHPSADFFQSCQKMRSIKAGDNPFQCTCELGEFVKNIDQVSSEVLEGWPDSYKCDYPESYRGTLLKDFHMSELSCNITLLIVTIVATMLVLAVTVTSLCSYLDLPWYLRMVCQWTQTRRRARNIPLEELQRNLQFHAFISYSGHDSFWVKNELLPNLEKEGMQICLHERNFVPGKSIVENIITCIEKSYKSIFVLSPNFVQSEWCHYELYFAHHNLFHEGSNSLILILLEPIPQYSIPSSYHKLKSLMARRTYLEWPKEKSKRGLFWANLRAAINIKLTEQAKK
Chain of UniProt Q03181 (whole entry, looked up): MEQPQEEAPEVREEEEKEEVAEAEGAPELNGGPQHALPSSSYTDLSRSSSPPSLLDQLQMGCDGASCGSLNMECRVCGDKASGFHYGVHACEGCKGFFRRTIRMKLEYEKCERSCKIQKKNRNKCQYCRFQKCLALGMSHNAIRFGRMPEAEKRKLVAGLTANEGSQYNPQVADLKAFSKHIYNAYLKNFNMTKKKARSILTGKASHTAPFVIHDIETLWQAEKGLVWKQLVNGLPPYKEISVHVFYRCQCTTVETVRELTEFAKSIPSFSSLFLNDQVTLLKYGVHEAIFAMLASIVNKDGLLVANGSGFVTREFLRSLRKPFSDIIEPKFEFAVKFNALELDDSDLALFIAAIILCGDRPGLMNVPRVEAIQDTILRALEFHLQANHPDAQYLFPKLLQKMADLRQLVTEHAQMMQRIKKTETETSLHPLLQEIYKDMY
Chain of UniProt Q96LB2 (whole entry, looked up): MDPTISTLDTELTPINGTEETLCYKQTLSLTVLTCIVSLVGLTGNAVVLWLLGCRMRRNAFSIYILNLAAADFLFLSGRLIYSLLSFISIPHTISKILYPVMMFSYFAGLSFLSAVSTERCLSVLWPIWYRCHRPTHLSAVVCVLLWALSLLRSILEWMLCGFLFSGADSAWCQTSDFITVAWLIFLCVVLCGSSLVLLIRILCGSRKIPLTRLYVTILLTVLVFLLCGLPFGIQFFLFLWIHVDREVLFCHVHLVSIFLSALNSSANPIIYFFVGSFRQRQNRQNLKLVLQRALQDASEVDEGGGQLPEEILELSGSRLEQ
Chain of UniProt Q9UBL9 (whole entry, looked up): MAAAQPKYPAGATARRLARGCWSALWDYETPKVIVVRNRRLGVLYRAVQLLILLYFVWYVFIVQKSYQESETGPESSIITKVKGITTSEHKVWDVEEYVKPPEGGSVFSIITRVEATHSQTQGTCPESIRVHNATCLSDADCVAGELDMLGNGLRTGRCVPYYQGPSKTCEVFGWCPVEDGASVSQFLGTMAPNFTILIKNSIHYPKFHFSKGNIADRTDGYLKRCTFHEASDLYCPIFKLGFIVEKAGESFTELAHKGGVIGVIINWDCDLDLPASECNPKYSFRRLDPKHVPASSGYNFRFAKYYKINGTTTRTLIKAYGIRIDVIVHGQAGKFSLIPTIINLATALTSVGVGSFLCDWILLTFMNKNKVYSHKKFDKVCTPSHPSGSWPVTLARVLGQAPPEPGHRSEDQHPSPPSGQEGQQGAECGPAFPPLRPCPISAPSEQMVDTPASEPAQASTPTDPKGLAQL
Chain of UniProt Q8TDS7 (whole entry, looked up): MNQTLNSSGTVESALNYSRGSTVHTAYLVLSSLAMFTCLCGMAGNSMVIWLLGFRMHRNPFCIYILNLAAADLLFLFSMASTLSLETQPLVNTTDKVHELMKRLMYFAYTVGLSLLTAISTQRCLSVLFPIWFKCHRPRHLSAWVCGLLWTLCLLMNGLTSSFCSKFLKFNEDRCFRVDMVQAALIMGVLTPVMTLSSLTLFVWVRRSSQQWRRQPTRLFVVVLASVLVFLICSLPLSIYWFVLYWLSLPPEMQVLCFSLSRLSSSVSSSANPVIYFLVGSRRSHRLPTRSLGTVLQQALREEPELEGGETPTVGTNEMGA
Chain of UniProt Q8NHB7 (whole entry, looked up): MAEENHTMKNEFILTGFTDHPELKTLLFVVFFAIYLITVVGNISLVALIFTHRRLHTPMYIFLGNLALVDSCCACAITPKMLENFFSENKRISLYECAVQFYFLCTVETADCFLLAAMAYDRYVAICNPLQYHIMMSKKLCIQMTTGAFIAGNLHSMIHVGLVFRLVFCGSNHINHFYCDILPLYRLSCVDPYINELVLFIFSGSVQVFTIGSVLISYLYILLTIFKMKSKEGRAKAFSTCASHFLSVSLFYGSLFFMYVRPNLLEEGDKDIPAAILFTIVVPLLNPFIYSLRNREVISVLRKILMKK

SMILES = CCc1nccnc1OC; target = uncharacterized protein (Vulpes vulpes, UniProt A0A3Q7SVK8); test = cAMP, agonist; system = HEK293 transfected with uncharacterized protein; EC50 = 323 ± 93.3 µM
SMILES = CCCC[C@@H]1NC(=O)[C@H](Cc2ccc(O)cc2)NC(=O)[C@@H]2CCCN2C(=O)[C@H](CC(=O)O)NC(=O)[C@H](C)NC(=O)[C@H](Cc2ccccc2)NC(=O)[C@@H]2CSCCC(=O)N3CN(CN(C3)C(=O)CCSC[C@@H](C(=O)N[C@@H](C)C(N)=O)NC1=O)C(=O)CCSC[C@H](NC(C)=O)C(=O)N[C@@H](CC(C)(C)C)C(=O)N1CCC[C@H]1C(=O)N[C@@H](CCC(=O)O)C(=O)N[C@H](CCCCNC(=O)CCOCCOCCOCCOCCOCCOCCOCCOCCOCCOCCOCCOCCn1cc(CCC(=O)NCCC(=O)N(C)CC(=O)N(C)CC(=O)N(C)CC(=O)N(C)CC(=O)N(C)CC(=O)N(C)CC(=O)N(C)CC(=O)N(C)CC(=O)N(C)CC(=O)N(C)CC(=O)N[C@H]3CSCCC(=O)N4CN5CN(C4)C(=O)CCSC[C@H](NC(=O)[C@@H](CC(=O)O)NC(=O)[C@H](Cc4cccc6ccccc46)NC(=O)[C@@H]4CCCN4C3=O)C(=O)N[C@@H](CCSC)C(=O)N[C@@H](CCCCNC(=N)N)C(=O)N[C@@H](CC(=O)O)C(=O)N[C@@H](Cc3c[nH]c4ccccc34)C(=O)N[C@@H](CO)C(=O)N[C@@H]([C@@H](C)O)C(=O)N3CCC[C@H]3C(=O)N3C[C@H](O)C[C@H]3C(=O)N[C@@H](Cc3c[nH]c4ccccc34)C(=O)N[C@H](C(N)=O)CSCCC5=O)nn1)C(=O)N1CCC[C@H]1C(=O)N[C@@H](Cc1ccc(O)cc1)C(=O)N2; target = Tumor necrosis factor receptor superfamily member 9/Nectin-4; test = reporter gene, agonist; system = HT-1376 reporter coculture; EC50 = 0.0021 µM
SMILES = CCO[C@H](COc1ccc(C(F)(F)F)cc1)CSc1ccc(OCC(=O)O)c(C)c1; target = PPARD (Homo sapiens, UniProt Q03181); test = reporter gene, agonist, luciferase reporter; conditions = serum-free; EC50 = 0.03 µM
SMILES = CCCCNc1ccc([N+](=O)[O-])cc1-n1cnc(-c2ccc([N+](=O)[O-])cc2)c1; target = Toll-like receptor 1/2; test = reporter gene, agonist; system = HEK-Blue hTLR2; conditions = 24 h; EC50 = > 100 µM
SMILES = NCCCC(=O)O; target = MRGPRD (Homo sapiens, UniProt Q8TDS7); test = miniGq recruitment, agonist, BRET; system = HEK293T; conditions = wild type; EC50 = 112 µM
SMILES = CC(C)(C)c1sc2ncnc(Oc3c(F)cccc3OC(F)(F)F)c2c1-c1ccc(Cl)cc1; target = MRGPRX1 (Homo sapiens, UniProt Q96LB2); test = positive allosteric modulator, FLIPR; system = HEK293 transfected with MRGPRX1; conditions = added: EC20 agonist; EC50 = 0.03 µM
SMILES = CNc1ccc(C(=O)O)cc1-n1cnc(-c2ccc(C(F)(F)F)cc2)c1; target = Toll-like receptor 1/2; test = reporter gene, agonist; system = HEK-Blue hTLR2; conditions = 24 h; EC50 = > 100 µM
SMILES = COc1cnccn1; target = OR5K1 (Homo sapiens, UniProt Q8NHB7); test = cAMP luminescence, agonist; system = HEK293; EC50 = ≥ 1500 µM
SMILES = CCCC[C@@H]1NC(=O)[C@H](Cc2ccc(O)cc2)NC(=O)[C@@H]2CCCN2C(=O)[C@H](CC(=O)O)NC(=O)[C@H](C)NC(=O)[C@H](Cc2ccccc2)NC(=O)[C@@H]2CSCCC(=O)N3CN(CN(C3)C(=O)CCSC[C@@H](C(=O)N[C@@H](C)C(N)=O)NC1=O)C(=O)CCSC[C@H](NC(C)=O)C(=O)N[C@@H](CC(C)(C)C)C(=O)N1CCC[C@H]1C(=O)N[C@@H](CCCCNC(=O)CCc1cn(CCOCCOCCOCCOCCOCCC(=O)N[C@H]3CSCCC(=O)N4CN5CN(C4)C(=O)CCSC[C@H](NC(=O)[C@@H](CC(=O)O)NC(=O)[C@H](Cc4cccc6ccccc46)NC(=O)[C@@H]4CCCN4C3=O)C(=O)N[C@@H](CCSC)C(=O)N[C@@H](CCCCNC(=N)N)C(=O)N[C@@H](CC(=O)O)C(=O)N[C@@H](Cc3c[nH]c4ccccc34)C(=O)N[C@@H](CO)C(=O)N[C@@H]([C@@H](C)O)C(=O)N3CCC[C@H]3C(=O)N3C[C@H](O)C[C@H]3C(=O)N[C@@H](Cc3c[nH]c4ccccc34)C(=O)N[C@H](C(N)=O)CSCCC5=O)nn1)C(=O)N[C@H](C)C(=O)N1CCC[C@H]1C(=O)N[C@@H](Cc1ccc(O)cc1)C(=O)N2; target = Tumor necrosis factor receptor superfamily member 9/Nectin-4; test = reporter gene, agonist; system = HT-1376 coculture with reporter cells; EC50 = 0.00317 µM
SMILES = Nc1ncnc2c1ncn2[C@@H]1O[C@H](COP(=O)(O)OP(=O)(O)OP(=O)(O)O)[C@@H](O)[C@H]1O; target = P2X purinoceptor 2 (P2RX2, Homo sapiens, UniProt Q9UBL9); test = ion current, agonist, two-electrode voltage clamp; system = Xenopus oocytes; EC50 = 9.09 µM

A few entries again:
SMILES = CCc1nccnc1OC; target = uncharacterized protein (Vulpes vulpes, UniProt A0A3Q7SVK8); test = cAMP, agonist; system = HEK293 transfected with uncharacterized protein; EC50 = 323 ± 93.3 µM
